Results pooled from the literature.
Parts stem from different laboratories: compare values within a part only. Positions count from the first letter of the parent shown.

Set 1
Target: Histone acetyltransferase KAT6A, both winged helices, GST fusion (KAT6A, Homo sapiens, UniProt Q92794, residues 1-181)
Method: protein binding microarray
Molecule type: double-stranded DNA, one strand shown
Medium: in vitro
Concentration: not given
Notes: 8-mer, flanks averaged, mean of 2 arrays, mostly near background
Relative to: not given
Reading: higher = stronger binding
Residues (chain): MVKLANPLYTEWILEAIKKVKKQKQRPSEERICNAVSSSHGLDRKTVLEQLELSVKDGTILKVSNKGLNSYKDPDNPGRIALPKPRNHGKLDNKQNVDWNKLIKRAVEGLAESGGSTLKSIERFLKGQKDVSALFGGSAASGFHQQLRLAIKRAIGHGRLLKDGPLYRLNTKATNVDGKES
For `TCGACAAA`, the E-score was -0.0086.
`ATATGTCA` gave an E-score of 0.0131.
`ATGACTAG` has an E-score of -0.126.
`CTGATGAC` has an E-score of -0.0449.
`CCAGATGC` has an E-score of -0.163.
For `ATACGTAT`, the E-score was 0.213.
`CTGGGTGC` has an E-score of -0.0535.
With `GAGGTGGC` the E-score was -0.24.
With `CTATACAG` the E-score was -0.0952.
`GATAGATC` has an E-score of -0.0336.
For `CATCGCGA`, the E-score was 0.261.

Set 2
Target: Prothrombin, mature alpha-thrombin (F2, Homo sapiens, UniProt P00734)
Method: aptamer microarray, sandwich
Molecule type: DNA with 2'F-ANA
Medium: in vitro
Concentration: 200 nM
Notes: whole 15-mer aptamer, many near background
With: Cy3 exosite-II aptamer, 400 nM
Reading: higher = stronger binding
Sequence: GGTTGGTGTGGTTGG
`2'F-ANA at 1 2 3 4 5 9 14 15`: “mean fluorescence intensity” 73.7 a.u.
For `2'F-ANA at 1 6 7 9 10 11 14 15`, “mean fluorescence intensity” read 50.3 a.u.
For `2'F-ANA at 1 5 6 7 9 10 11 13 15`, “mean fluorescence intensity” read 47.6 a.u.
Under “mean fluorescence intensity”, `2'F-ANA at 3 4 5 7 10 13 14 15` is recorded as 56.2 a.u.
`2'F-ANA at 1 3 4 5 6 7 9 10 11 12 13 15` — result for “mean fluorescence intensity”: 54 a.u.
For `2'F-ANA at 6 7 8 9 10 11 14 15`, “mean fluorescence intensity” read 97.3 a.u.
`2'F-ANA at 2 3 4 5 6 7 11 12 15` — result for “mean fluorescence intensity”: 130 a.u.
Under “mean fluorescence intensity”, `2'F-ANA at 1 2 4 5 7 9 10 11 12 13 14 15` is recorded as 47.2 a.u.
Under “mean fluorescence intensity”, `2'F-ANA at 2 3 4 7 9 10 14 15` is recorded as 180 a.u.
`2'F-ANA at 1 4 5 9 10 11 15` — result for “mean fluorescence intensity”: 50 a.u.
`2'F-ANA at 1 2 9 10 11 13 15` — result for “mean fluorescence intensity”: 51.4 a.u.
For `2'F-ANA at 4 5 8 9 11 15`, “mean fluorescence intensity” read 59.8 a.u.
For `2'F-ANA at 1 3 5 7 8 13 15`, “mean fluorescence intensity” read 72.5 a.u.
`2'F-ANA at 2 3 5 6 7 8 10 12 13`: “mean fluorescence intensity” 52.9 a.u.

Set 3
Target: CCNE2, cyclin fold, Cln2 fusion (human)
Method: yeast growth competition, sequencing
Medium: yeast
Notes: weak parent motif
Relative to: not given
Reading: higher = stronger binding
Parent: ORC1 docking peptide (human); PRARKRLELGNLG; partner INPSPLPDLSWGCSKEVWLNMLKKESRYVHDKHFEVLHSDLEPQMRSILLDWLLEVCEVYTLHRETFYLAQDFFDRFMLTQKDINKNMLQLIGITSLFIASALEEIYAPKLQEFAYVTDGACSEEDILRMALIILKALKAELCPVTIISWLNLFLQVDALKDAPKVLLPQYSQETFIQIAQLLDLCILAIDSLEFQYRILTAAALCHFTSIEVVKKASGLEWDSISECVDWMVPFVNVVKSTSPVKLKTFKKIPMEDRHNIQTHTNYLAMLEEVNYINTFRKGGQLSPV
`PRARMRLELGNLG [K5M]` — result for “normalised enrichment score”: 0.595.
Under “normalised enrichment score”, `PRARERLELGNLG [K5E]` is recorded as 0.188.
For `PRARKRLEEGNLG [L9E]`, “normalised enrichment score” read 0.129.
Under “normalised enrichment score”, `PRARKRLDLGNLG [E8D]` is recorded as 1.6.
`PRLRKRLELGNLG [A3L]` — result for “normalised enrichment score”: 0.561.
Under “normalised enrichment score”, `PAARKRLELGNLG [R2A]` is recorded as 0.288.
For `PRARKRLELGPLG [N11P]`, “normalised enrichment score” read 1.2.
Under “normalised enrichment score”, `PRARKRLFLGNLG [E8F]` is recorded as 0.727.
`PRASKRLELGNLG [R4S]`: “normalised enrichment score” -0.153.
Under “normalised enrichment score”, `PRARKILELGNLG [R6I]` is recorded as 0.207.

Single results of other studies
With `PhoQ, residues 284 288 289 292 302 303 AGHLVA` the fold induction was 2.14 (PhoP, residues 12 14 15 18 19 LHHSG (Escherichia coli, UniProt P23836); Sort-seq, measured: YFP reporter; E. coli; PhoQ-PhoP variant library, with: 10 µM Mg2+; relative to: high Mg2+ state, higher = stronger signaling).

Excerpt of the above (set 1):
`ATATGTCA` gave an E-score of 0.0131.
`CCAGATGC` has an E-score of -0.163.
`CTGGGTGC` has an E-score of -0.0535.
For `TCGACAAA`, the E-score was -0.0086.
`GATAGATC` has an E-score of -0.0336.
